Assay results from different studies.
Each line is one published result; not all experiments were run side by side. “And” joins repeats or separate records; there may be more than shown.

The inhibition of `COc1cccc2c1cc1c3c(cc4c(c32)OCO4)[C@@H]2c3c4c5c(cc6c(c5c5cccc(OC)c35)OCO6)CCN4[C@@H]2N1C` (racemic) is reported as under 50% (HuCC-A1; cytotoxicity, MTT; 50 µg/mL, 48 h).
The inhibition of `CC(C)C[C@H](NC(=O)[C@H](CO)NC(=O)[C@H](CO)NC(=O)CNC(=O)[C@@H]1CCCN1C(=O)[C@H](Cc1ccc(O)cc1)NC(=O)[C@H](CC(C)C)NC(=O)[C@H](CO)NC(=O)[C@H](CS)NC(=O)[C@H](CC(C)C)NC(=O)[C@H](CC(C)C)NC(=O)CNC(=O)[C@H](CC(C)C)NC(=O)[C@H](Cc1ccccc1)NC(=O)CNC(=O)[C@@H]1CSSC[C@H](N)C(=O)N[C@@H](Cc2c[nH]cn2)C(=O)N[C@@H](CO)C(=O)N[C@@H](Cc2c[nH]cn2)C(=O)NCC(=O)N[C@@H]([C@@H](C)O)C(=O)N[C@@H](CCCNC(=N)N)C(=O)N[C@@H](C)C(=O)N1)C(=O)O` is reported as about 30% (A-431; EGFR phosphorylation, flow cytometry, refers to: EGFR phospho-Tyr1173; 10 µM, together with: EGF 20 ng/mL; baseline: EGF-stimulated control).
The inhibition of `CCC(=CCc1c(O)cc2c(c1O)C(=O)CC(c1ccc(O)cc1)O2)CC` (stereo not shown) is reported as 97.2% (HeLa; cell growth or viability, MTT; 100 µM, 48 h).
With `CN1CCN(C(=O)c2ccc(-c3cc4c(N5CCC[C@H](C(=O)NCc6ccc(OC(F)(F)F)cc6)C5)ncnc4[nH]3)cc2)CC1` the inhibition was 63% (NCI-H3122; cell growth or viability, MTT; 1 µg/mL, 72 h).
With `Cc1nc2c(F)cc(-c3nc(Nc4ccc(CNC(=O)CCCCCC(=O)NO)cc4)ncc3F)cc2n1C(C)C` the inhibition was 89.5% (NCI-H460; cell growth or viability, CCK-8; 0.3 µM, 48 h).
`COc1cc(C(=O)N2CC[C@@H](O)[C@@H](N)C2)cc2nc(-c3cc4cccnc4n3CC3CC3)n(C)c12` gave an inhibition of 60.7% and 36.1% and 45.5% and 54.5% (human neutrophils; protein citrullination, inhibitor, flow cytometry, refers to: citrullinated histone H3; 1 µM, together with: ionomycin).
`Cc1nc2c(F)cc(-c3nc(Nc4ccc(CNC(=O)CCCC(=O)NO)cc4)ncc3F)cc2n1C(C)C` has an inhibition of 98.8% (NCI-H460; cell growth or viability, CCK-8; 0.3 µM, 48 h).
`CC(=O)O[C@H]1OC[C@@H]2C=C([C@@]3(C)CCCC(C)(C)C3)CC[C@H]12` gave an inhibition of 26% (human T lymphocytes; IL-2 release, refers to: IL-2; concentration not given, 24 h, together with: concanavalin A).
For `C=CC(=O)N1CCC2(CCN(Cc3ccccc3)C2)C1` (stereo not shown), inhibition read “decreased” (MCF7, 14-3-3σ knockdown vs control; YAP/TAZ-TEAD reporter; 10 µM, 24 h).
For `Cc1cc(NC2CCN(C)CC2)ccc1-c1cc2c(N3CCC[C@H](C(=O)NCc4ccc(OC(F)(F)F)cc4)C3)ncnc2[nH]1`, the inhibition was 52.7% (NCI-H3122; cell growth or viability, MTT; 0.2 µg/mL, 72 h).

For quick reference, copied from above:
With `CN1CCN(C(=O)c2ccc(-c3cc4c(N5CCC[C@H](C(=O)NCc6ccc(OC(F)(F)F)cc6)C5)ncnc4[nH]3)cc2)CC1` the inhibition was 63% (NCI-H3122; cell growth or viability, MTT; 1 µg/mL, 72 h).
